{"data": "Assay results pooled from the literature", "note": "A part holds a random share of what one study measured. Several values in a cell are separate wells, animals, samples, runs or records.", "chain of UniProt Q9BQI3 (whole entry, looked up)": "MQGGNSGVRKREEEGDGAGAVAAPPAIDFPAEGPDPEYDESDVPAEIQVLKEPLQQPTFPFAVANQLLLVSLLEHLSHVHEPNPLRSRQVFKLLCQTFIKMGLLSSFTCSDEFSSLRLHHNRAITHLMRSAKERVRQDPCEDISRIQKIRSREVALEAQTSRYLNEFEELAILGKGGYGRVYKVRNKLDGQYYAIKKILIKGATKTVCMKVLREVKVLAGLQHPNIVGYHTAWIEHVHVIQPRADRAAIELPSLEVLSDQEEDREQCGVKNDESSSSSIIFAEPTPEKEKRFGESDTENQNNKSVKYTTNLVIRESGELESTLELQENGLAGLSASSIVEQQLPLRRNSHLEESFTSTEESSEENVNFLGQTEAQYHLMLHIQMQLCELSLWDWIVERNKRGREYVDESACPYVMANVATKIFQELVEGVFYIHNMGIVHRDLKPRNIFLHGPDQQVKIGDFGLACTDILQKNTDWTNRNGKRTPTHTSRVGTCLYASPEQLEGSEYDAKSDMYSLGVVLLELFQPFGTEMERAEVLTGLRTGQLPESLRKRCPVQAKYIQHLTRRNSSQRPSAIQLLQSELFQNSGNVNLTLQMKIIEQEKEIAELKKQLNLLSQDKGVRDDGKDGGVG"}
{"data": "Block 1", "cell line": "mouse MPNST tumor cells", "method": "high-content immunofluorescence imaging", "measured": "nuclear SOX9", "tested at": "10 µM", "time": "12 h", "notes": "mean of 2 replicates", "baseline": "DMSO control", "reading": "higher = more nuclear SOX9"}
{"Compound": "COc1cc(N2CCN(C)CC2)ccc1Nc1nccc(-c2cn(C)c3cnccc23)n1", "nuclear SOX9 intensity": "135 % of DMSO"}
{"Compound": "COc1cc([S+](C)[O-])ccc1-c1nc2cccnc2[nH]1 (stereo not shown)", "nuclear SOX9 intensity": "105 % of DMSO"}
{"Compound": "Nc1ncn([C@H]2C[C@H](O)[C@@H](CO)O2)c(=O)n1", "nuclear SOX9 intensity": "117 % of DMSO"}
{"data": "Block 2", "cell line": "A-375", "tested at": "100 µM", "time": "36 h"}
{"Structure (SMILES)": "CC#C[C@]1(O)CC[C@H]2[C@@H]3CCC4=CC(=O)CCC4=C3[C@@H](c3ccc(N(C)C)cc3)C[C@@]21C", "viability [%]": 24.8}
{"Structure (SMILES)": "COc1cc2c(cc1O)CC[C@@H]1[C@@H]2CC[C@]2(C)[C@@H](O)CC[C@@H]12", "viability [%]": 46.5}
{"Structure (SMILES)": "CN(C)CCOC(c1ccc(Cl)cc1)c1ccccn1 (stereo not shown)", "viability [%]": 85.7}
{"data": "Block 3", "species": "mouse", "medium": "microsomes or S9", "tested at": "2 µM", "time": "0.5 h"}
{"SMILES": "NC(=O)c1c(-c2ccc(Cl)cc2Cl)csc1NC(=O)CC1(CC(=O)O)CCCC1", "remaining compound [%]": 76.4}
{"SMILES": "COC(=O)c1ccc2c(c1)OC(CC(=O)Nc1ccc(N)cc1)C(=O)N2 (stereo not shown)", "remaining compound [%]": 71.2}
{"SMILES": "CC(C)(C)NC(=O)Cn1c(=O)n(-c2ccccc2F)c(=O)c2sccc21", "remaining compound [%]": 50.1}
{"SMILES": "Cc1ncc(CN(C)c2nnc(C)c(C)c2C#N)s1", "remaining compound [%]": 5.17}
{"data": "Block 4", "target": "Maternal embryonic leucine zipper kinase (MELK, Homo sapiens, UniProt Q14680)", "read-out": "enzyme activity", "action": "inhibitor", "tested at": "0.5 µM", "baseline": "control", "chain of UniProt Q14680 (whole entry, looked up)": "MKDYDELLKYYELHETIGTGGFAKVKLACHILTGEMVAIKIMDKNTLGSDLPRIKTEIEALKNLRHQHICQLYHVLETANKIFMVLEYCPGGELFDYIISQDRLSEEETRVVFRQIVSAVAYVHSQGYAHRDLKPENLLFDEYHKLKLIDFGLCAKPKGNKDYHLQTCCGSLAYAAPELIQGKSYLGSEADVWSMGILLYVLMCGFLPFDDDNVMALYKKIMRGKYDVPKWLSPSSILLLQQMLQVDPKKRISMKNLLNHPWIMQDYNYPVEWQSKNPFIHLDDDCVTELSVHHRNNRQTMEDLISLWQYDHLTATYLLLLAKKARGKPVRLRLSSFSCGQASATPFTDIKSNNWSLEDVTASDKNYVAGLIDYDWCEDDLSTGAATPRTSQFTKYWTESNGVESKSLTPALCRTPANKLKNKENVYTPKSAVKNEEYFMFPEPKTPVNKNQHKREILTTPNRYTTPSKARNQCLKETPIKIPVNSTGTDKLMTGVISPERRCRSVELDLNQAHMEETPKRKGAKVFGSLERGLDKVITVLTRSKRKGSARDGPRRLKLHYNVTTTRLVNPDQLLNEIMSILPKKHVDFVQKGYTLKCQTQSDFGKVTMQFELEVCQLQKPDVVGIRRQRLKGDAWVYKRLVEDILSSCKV"}
{"Structure (SMILES)": "NCCNc1ncc(C(N)=O)c(Nc2cccc(C(F)(F)F)c2)n1", "remaining activity": "95.8%"}
{"Structure (SMILES)": "Cn1c2ccccc2c2c3c(c4c5ccccc5n(CCC#N)c4c21)CNC3=O", "remaining activity": "21.1%"}
{"Structure (SMILES)": "Cc1ccc(Nc2nccc(N(C)c3ccc4c(C)n(C)nc4c3)n2)cc1S(N)(=O)=O", "remaining activity": "87.5%"}
{"Structure (SMILES)": "Nc1ccc2ncnc(NCCc3ccc(Oc4ccccc4)cc3)c2c1", "remaining activity": "96.8%"}
{"Structure (SMILES)": "Cc1ccc(NC(=O)c2ccc(CN3CCN(C)CC3)cc2)cc1Nc1nc(-c2cccnc2)cs1", "remaining activity": "84.8%"}
{"Structure (SMILES)": "CNC(=O)c1cc(Oc2ccc(NC(=O)Nc3ccc(Cl)c(C(F)(F)F)c3)cc2)ccn1", "remaining activity": "93.6%"}
{"Structure (SMILES)": "CO[C@H]1C[C@@H]2CC[C@@H](C)[C@@](O)(O2)C(=O)C(=O)N2CCCC[C@H]2C(=O)O[C@H]([C@H](C)C[C@@H]2CC[C@@H](O)[C@H](OC)C2)CC(=O)[C@H](C)/C=C(\\C)[C@@H](O)[C@@H](OC)C(=O)[C@H](C)C[C@H](C)/C=C/C=C/C=C/1C", "remaining activity": "97.8%"}
{"Structure (SMILES)": "O=C(Nc1cccc(Nc2cc(Nc3cccc(C(F)(F)F)c3)ncn2)c1)C1CC1", "remaining activity": "104%"}
{"Structure (SMILES)": "COc1cc2nccc(Oc3ccc(NC(=S)NC(=O)c4ccccc4C)cc3)c2cc1OC", "remaining activity": "98.5%"}
{"Structure (SMILES)": "O=C1NC(=O)C(c2cn(CCCO)c3ncccc23)=C1c1cnccn1", "remaining activity": "101%"}
{"Structure (SMILES)": "O=S(=O)(c1cccc2cnccc12)N1CCCNCC1", "remaining activity": "78.6%"}
{"Structure (SMILES)": "N#CC(C#N)=C(N)/C(C#N)=C/c1ccc(O)cc1", "remaining activity": "101%"}
{"Structure (SMILES)": "CN(C)c1ccc(C=C2C(=O)Nc3ccccc32)cc1", "remaining activity": "89.3%"}
{"Structure (SMILES)": "COc1cc2ncnc(Nc3ccc(Oc4ccccc4)cc3)c2cc1OC", "remaining activity": "101%"}
{"data": "Mixed results"}
{"Substance": "PhoQ, residues 284 288 289 292 302 303 ASSHFY", "target or system": "PhoP, residues 12 14 15 18 19 VHSCL (Escherichia coli, UniProt P23836)", "assay": "Sort-seq, measured: YFP reporter", "test system": "E. coli", "setting": "PhoQ-PhoP variant library, added: 10 µM Mg2+", "scale": "baseline: high Mg2+ state, higher = stronger signaling", "quantity": "fold induction", "value": 3.3}
{"Substance": "CCCCN(CCCC)C(=O)CN1C[C@@H](c2cc(OC)c3c(c2)OCO3)[C@H](C(=O)O)[C@H]1CC(C)(C)CCC", "target or system": "EIF2AK1 (Homo sapiens, UniProt Q9BQI3)", "assay": "cell-free assay, competition with immobilised ligand", "setting": "1 µM", "quantity": "remaining binding", "value": "100%"}
{"Substance": "COc1ccc(-c2c(Nc3ccccn3)[nH]c3c(C4=CCCCC4)c(-c4ccccc4)nn3c2=O)cc1", "test system": "human, plasma", "setting": "oral, 200 mg twice daily", "quantity": "AUC(all)", "value": "255 µg·h/mL and 243 µg·h/mL"}
{"Substance": "CC(C)n1cnc(-c2ccc(F)cc2)c1-c1ncc(C(=O)Nc2ccc(N3CCN(C)CC3)cc2)[nH]1", "assay": "phase 2a clinical trial", "test system": "patients with idiopathic pulmonary fibrosis", "setting": "30 mg once daily, without standard of care", "quantity": "patients with liver injury", "value": "0%"}
{"note": "Repeated from above (block 4):"}
{"Structure (SMILES)": "Cc1ccc(NC(=O)c2ccc(CN3CCN(C)CC3)cc2)cc1Nc1nc(-c2cccnc2)cs1", "remaining activity": "84.8%"}
{"Structure (SMILES)": "CNC(=O)c1cc(Oc2ccc(NC(=O)Nc3ccc(Cl)c(C(F)(F)F)c3)cc2)ccn1", "remaining activity": "93.6%"}
{"Structure (SMILES)": "CO[C@H]1C[C@@H]2CC[C@@H](C)[C@@](O)(O2)C(=O)C(=O)N2CCCC[C@H]2C(=O)O[C@H]([C@H](C)C[C@@H]2CC[C@@H](O)[C@H](OC)C2)CC(=O)[C@H](C)/C=C(\\C)[C@@H](O)[C@@H](OC)C(=O)[C@H](C)C[C@H](C)/C=C/C=C/C=C/1C", "remaining activity": "97.8%"}
